Results from different studies.
Several values in a cell are separate wells, animals, samples, runs or records. ± marks the error that the study gave.

| Structure (SMILES) | cell line | test | test system | conditions | how to read | measurement | value |
| --- | --- | --- | --- | --- | --- | --- | --- |
| Cc1ncsc1-c1ccc(CNC(=O)[C@@H]2C[C@@H](O)CN2C(=O)[C@@H](NC(=O)CCCCCCCCCC(=O)N2CCN(CC[C@H](NC(=O)C3(N)CCN(c4ncnc5[nH]ccc45)CC3)c3ccc(Cl)cc3)CC2)C(C)(C)C)cc1 | PC-3 | flow cytometry |  | concentration not given, 48 h |  | G2/M phase cells | 41.2% |
| CC1(C)Oc2ccc(CC3=C(c4ccc(O)cc4)C(=O)OC3=O)cc2C[C@@H]1O | RPTEC | qPCR |  | 10 µg/mL, 24 h, basal, no LPS |  | COX-2 mRNA level | no effect |
| Nc1ncnc2c1ncn2[C@@H]1O[C@H](CO)[C@@H](O)[C@H]1O | activated human T cells |  |  | 50 µM, unit not given | reference: DMSO | dihydroorotate level | 7.2 and 6.7 and 6.6 and 8.4 and 8.3 |
| Cc1cc(N2CCc3c(c(C)nn3CC34CCC(NC(=O)[C@@H]5COCCN5)(CC3)CC4)C2)c2cnn(C)c2n1 | human PBMC | qRT-PCR, item: IFI44L mRNA |  | 100 nM, with: ssRNA |  | inhibition | 95 ± 2% |
| O=C(/C=C/c1cccc(S(=O)(=O)Nc2ccccc2)c1)NO | BT-16 | cell viability, MTT |  | 10 µM, 72 h |  | inhibition | 88.9% |
| CC(=O)O[C@@]12CO[C@@H]1C[C@H](O)[C@@]1(C)C(=O)[C@H](O)C3=C(C)[C@@H](OC(=O)[C@H](O)[C@@H](NC(=O)OC(C)(C)C)c4ccccc4)C[C@@](O)([C@@H](OC(=O)c4ccccc4)[C@H]21)C3(C)C | compound-sensitive VCaP-AI | trypan blue exclusion |  | 0.002 µM, 72 h |  | inhibition of cell growth | > 65% |
| O=C(O[C@@H]1COC(=O)c2cc(O)c(O)c(O)c2-c2c(cc(O)c(O)c2O)C(=O)O[C@H]1[C@@H]1OC(=O)c2cc(O)c(O)c(O)c2-c2c(O)c(O)c(O)c3c2C(=O)O[C@H]1[C@@H]3O)c1cc(O)c(O)c(O)c1 | SIM-A9 microglia | nitric oxide production, Griess |  | 13.3 to 213.3 µM, with: LPS |  | inhibition | > 50% |
| CSCC[C@H](NC(=O)[C@H](Cc1ccc(OS(=O)(=O)O)cc1)NC(=O)[C@@H](N)CC(=O)O)C(=O)NCC(=O)N[C@@H](Cc1c[nH]c2ccccc12)C(=O)N[C@@H](CCSC)C(=O)N[C@@H](CC(=O)O)C(=O)N[C@@H](Cc1ccccc1)C(N)=O | HEK293T control virus | agonist, GloSensor cAMP |  | 3.2 nM, no receptor expressed | higher = more cAMP | cAMP accumulation | 0.226 a.u. |
| CSc1cc(Oc2ccnc3[nH]c(=O)cnc23)ccc1NC(=O)Nc1cc(C(C)(C)C)nn1-c1ccccc1 | patient-derived cell line clone B | RPPA, item: phosphorylated Tuberin | human | 1 µM, 4 h | reference: DMSO | phospho ratio | 0.75 |
| Cc1cccc(-c2[nH]c(CNc3ccccc3F)nc2-c2ccc3ncnn3c2)n1 | MM1.S pomalidomide-resistant | XTT |  | 0.75 µM | reference: untreated | viability | 91% |
| CC(C)(C)c1nc(-c2cccc(NS(=O)(=O)c3c(F)cccc3F)c2F)c(-c2ccnc(N)n2)s1 | C13 | annexin V/PI flow cytometry |  | concentration not given, 48 h | reference: control subtracted | late apoptotic cells | 4.2 ± 1.5% |
| CC[C@@H]1C(=O)N(C)c2cnc(Nc3ccc(C(=O)N[C@H]4CC[C@H](N5CCN(CC6CC6)CC5)CC4)cc3OC)nc2N1C(C)C | BT-16 | cell viability, MTT |  | 10 µM, 72 h |  | inhibition | 88.4% |
| CC/C(=N\NC(=O)NCc1cccc(O)c1)c1ccc(O)c(C)c1O | SK-OV-3 | Western blot | 2D culture | 20 µM, 1 h, unit not given | reference: β-actin | TAZ protein level | 1.49 ± 0.64 |
| Cc1nn(-c2nc3c(F)cc(F)cc3s2)c(O)c1C(c1ccc(C(F)(F)F)cc1)c1c(C)nn(-c2nc3c(F)cc(F)cc3s2)c1O | THP1-Dual | IFN luciferase reporter |  | 10 µM, with: HT-DNA |  | inhibition | 36.5% and 20.6% and 36.8% and 20.5% and 36.2% and 40.2% |
| COc1ccc2c(c1)c(CC(=O)O)c(C)n2C(=O)c1ccc(Cl)cc1 | Swiss 3T3 | inhibitor, radioimmunoassay |  | concentration not given, with: mastoparan and forskolin |  | cAMP accumulation | inhibited |
| COc1cc2ncnc(Nc3ccc(Oc4ccccc4)c(C)c3C)c2cc1OC | MeWo (NF1 mutant) | resazurin |  | 0.3 µM, 72 h, with: trametinib | reference: DMSO | viability | 95.7% |
| CC(C)(C)NC(=O)[C@@H]1C[C@@H]2CCCC[C@@H]2CN1C[C@@H](O)[C@H](Cc1ccccc1)NC(=O)[C@H](CC(N)=O)NC(=O)c1ccc2ccccc2n1 | ΔE-expressing cells | ΔE mislocalization, high-content imaging |  |  |  | maximal efficacy | 135% |
| Nc1cccc2c1C(=O)N(C1CCC(=O)NC1=O)C2=O (stereo not drawn) | bone marrow CD138+ myeloma cells | XTT |  | 0.6 µM, phenol red-free RPMI |  | viability | 104% |
| COc1cc(-c2nncn2C)ccc1Nc1ncc2cc(C)nc(NCC(C)(C)C)c2n1 | CAL-51 | cell growth |  | 72 h |  | GI50 | 0.032 µM |
| Cn1cc(-c2ccc(-c3cncc(Cl)c3N3CCC4(CCNC4=O)CC3)cc2)cn1 | COLO 205 | gene expression, microarray, item: MIA mRNA |  | concentration not given, 6 h | reference: untreated cells | log2 fold change | 2.81 |
| COc1cccc2c1c(O)c(C(=O)N(C)c1ccc(C(F)(F)F)cc1)c(=O)n2C | mouse bone marrow-derived macrophages | qPCR, item: Arg-1 |  | concentration not given, with: IL-4 |  | mRNA level | decreased |
| CCn1cc(-c2cc(Cn3ccnc3)cc3c2CCN([C@H](c2cc(OC)ccn2)C2CC2)C3=O)c(C(F)(F)F)n1 | PA-1 | cell growth, inhibitor |  | 120 h |  | EC50 | 0.0686 µM |
| C=CC1=C(C)c2cc3[n-]c(cc4nc(cc5[n-]c(cc1n2)c(C)c5C=C)C(C)=C4CCC(=O)O)c(CCC(=O)O)c3C.[Zn+2] | SH-SY5Y | RNA-seq, item: CXCL12 mRNA |  | 5 µM, 5 h | reference: untreated cells | fold change | 1.58 |

| Structure (SMILES) | cell line | test | test system | conditions | how to read | measurement | value |
| --- | --- | --- | --- | --- | --- | --- | --- |
| COC[C@H](NC(=O)c1cnc(C)s1)C(=O)N[C@@H](COC)C(=O)N[C@@H](Cc1ccccc1)C(=O)[C@@]1(C)CO1 | BT-16 | cell viability, MTT |  | 10 µM, 72 h |  | inhibition | 93.6% |
| CCN1CCN(Cc2ccc(NC(=O)c3ccc(C)c(-c4ccc5nc(NC(=O)C6CC6)cn5c4)c3)cc2C(F)(F)F)CC1 | MHHCALL4 cells | Western blot, item: JAK2, STAT5, STAT3 |  | concentration not given |  | phosphorylation | inhibited |
| CC(C)NCC(O)c1ccc(O)c(O)c1 (stereo not drawn) | mouse ventricular cardiomyocytes |  |  | dose not given, 0.403 s |  | sarcomere length | 1.8 µm |
| Cc1cc(Nc2ncc(Cl)c(Nc3ccccc3S(=O)(=O)C(C)C)n2)c(OC(C)C)cc1C1CCNCC1 | CLB-GE | phosphoproteomics LC-MS/MS, item: AP2B1 phosphorylation |  | 200 nM, 60 min | reference: untreated | log2 fold change | -2.26 |
| Fc1ccccc1-c1ccnc2[nH]c(C(F)(F)F)nc12 | L6 myoblasts | oxygen consumption rate, Seahorse XF |  |  | reference: BAM15 maximal respiration | Emax | 6 to 22% |
| CC(C)C[C@@H](C=O)NC(=O)[C@H](CC(C)C)NC(=O)[C@H](CC(C)C)NC(=O)OCc1ccccc1 | BT-16 | cell viability, MTT |  | 10 µM, 72 h |  | inhibition | 93.2% |
| Clc1nc(NCc2ccco2)c2[nH]cnc2n1 | iPSC-derived cardiomyocytes | RNA-seq, item: BPTF chr17 exon ending 67963506 |  | unit not given | reference: DMSO minus compound | ΔPSI | -0.297 |
| C[C@H]1O[C@@H](O[C@H]2[C@@H](O)C[C@H](O[C@H]3[C@@H](O)C[C@H](O[C@H]4CC[C@@]5(C)[C@H](CC[C@@H]6[C@@H]5C[C@@H](O)[C@]5(C)[C@@H](C7=CC(=O)OC7)CC[C@]65O)C4)O[C@@H]3C)O[C@@H]2C)C[C@H](O)[C@@H]1O | BT-16 | cell viability, MTT |  | 10 µM, 72 h |  | inhibition | 91.2% |
| COc1cc(/C=C/C(=O)N2CCC=CC2=O)cc(OC)c1OC | MDA-MB-468 | qRT-PCR, item: FH |  | 30 µM, 6 h | reference: time zero | mRNA expression | 90.8 ± 10.2% |
| N#Cc1ccc2nc(Nc3ccc(N4CCOCC4)c(Cl)c3)[nH]c2c1 | NCI-60 cancer cell panel | cell growth |  |  |  | median TGI | 17.8 µM |
| C=Cc1c2[n-]c(c1C)/C=c1\[n-]/c(c(C)c1C=C)=C\c1[n-]c(c(CCC(=O)O)c1C)/C=c1\[n-]c(c(C)c1CCC(=O)O)=C2.[Sn+4] | SH-SY5Y | RNA-seq, item: PTX3 mRNA |  | 5 µM, 5 h | reference: untreated cells | fold change | 3.51 |
| COc1cc2c(Oc3ccc(NC(=O)C4(C(=O)Nc5ccc(F)cc5)CC4)cc3F)ccnc2cc1OCCCN1CCOCC1 | BT-16 | cell viability, MTT |  | 10 µM, 72 h |  | inhibition | 94.4% |
| O=C(/C=C/C=C/C=C/C1CCCCC1)NC1=C[C@@](O)(/C=C/C=C/C=C/C(=O)NC2=C(O)CCC2=O)[C@@H]2O[C@@H]2C1=O | LoVo | cell growth, CellTiter-Glo |  | 78 h |  | GI50 | 19.5 µM |
| CNC(=O)c1ccc2c(c1)ncn2-c1ccc(CC(=O)OC(C)(C)C)cc1 | mouse BMDM, peritoneal macrophages, 3T3SA | ATP-based viability |  | concentration not given |  | necroptosis inhibition | inactive |
| Nc1n[nH]c2cc(I)ccc12 | Ba/F3 TEL-VEGFR1 | cell growth, CCK-8 |  |  |  | GI50 | 1.5 µM |
| CC/C(=N\NC(=O)C(C)Nc1ccccc1)c1ccc(O)c(C)c1O (stereo not drawn) | SK-OV-3 | Western blot, item: TAZ |  | 10 µM, 3 h, 2D culture, unit not given | reference: β-actin | protein level | 1.82 ± 0.93 |
| CCn1cc(-c2cc(Cn3ccoc3=N)cc3c2CCN([C@@H](C)c2cc(OC)ccn2)C3=O)c(C(F)(F)F)n1 | SH-10-TC | cell growth, inhibitor |  | 120 h |  | EC50 | 8.1 µM |
| COc1cccc2c1C(=O)c1c(O)c3c(c(O)c1C2=O)C[C@@](O)(C(=O)CO)C[C@@H]3O[C@H]1C[C@H](N)[C@@H](O)[C@H](C)O1 | BT-16 | cell viability, MTT |  | 10 µM, 72 h |  | inhibition | 89.2% |
| COc1cnc2cccc(N3CCc4c(cc(Cn5ccnc5C)cc4-c4cn(C)nc4C(F)(F)F)C3=O)c2c1 | NCI-H441 | cell growth, inhibitor |  | 120 h |  | EC50 | 21.6 µM |
| C=CC(=O)Nc1cc(Nc2nccc(-c3cn(C)c4ccccc34)n2)c(OC)cc1N(C)CCN(C)C | BT-16 | cell viability, MTT |  | 10 µM, 72 h |  | inhibition | 92.9% |
| COc1cc([C@@H]2c3cc4c(cc3[C@@H](O[C@@H]3O[C@@H]5CO[C@@H](C)O[C@H]5[C@H](O)[C@H]3O)[C@H]3COC(=O)[C@H]23)OCO4)cc(OC)c1O | HepG2 spheroids | flow cytometry, item: Ki67 |  | 1.7 µM, 96 h | reference: solvent control | cell proliferation reduction | 83.8% |
| CCc1cnc(N2CCC(c3nc(COc4ccc(-n5cnnn5)cc4)cs3)CC2)nc1 | HEK293T | RNA-seq, item: PON2 mRNA |  | 10 µM, 6 h | reference: vehicle | log2 fold change | -0.116 |

Some of these lines once more:
| Structure (SMILES) | cell line | test | test system | conditions | how to read | measurement | value |
| --- | --- | --- | --- | --- | --- | --- | --- |
| Nc1n[nH]c2cc(I)ccc12 | Ba/F3 TEL-VEGFR1 | cell growth, CCK-8 |  |  |  | GI50 | 1.5 µM |
| CC/C(=N\NC(=O)C(C)Nc1ccccc1)c1ccc(O)c(C)c1O (stereo not drawn) | SK-OV-3 | Western blot, item: TAZ |  | 10 µM, 3 h, 2D culture, unit not given | reference: β-actin | protein level | 1.82 ± 0.93 |
| CCn1cc(-c2cc(Cn3ccoc3=N)cc3c2CCN([C@@H](C)c2cc(OC)ccn2)C3=O)c(C(F)(F)F)n1 | SH-10-TC | cell growth, inhibitor |  | 120 h |  | EC50 | 8.1 µM |
| COc1cccc2c1C(=O)c1c(O)c3c(c(O)c1C2=O)C[C@@](O)(C(=O)CO)C[C@@H]3O[C@H]1C[C@H](N)[C@@H](O)[C@H](C)O1 | BT-16 | cell viability, MTT |  | 10 µM, 72 h |  | inhibition | 89.2% |
